Measured values from different studies.
pIC50: −log10 of the molar value.
Organism: Leishmania donovani

The pIC50 of `CC(=O)Oc1ccc(Cn2cc(C)c(=O)[nH]c2=O)cc1C1OC(c2cccc(Cl)c2)=NN1C(C)=O` (stereo not shown) is reported as under 4.00 (parasite growth, SYBR Green; RAW264.7; intracellular, amastigote).
`CCOC(=O)C(C)NC(=O)CN1C(=O)N/C(=C\c2ccc(C)cc2)C1=O` (stereo not shown) has a pIC50 of under 5.00 (parasite growth; 24 h, intracellular, amastigote).
With `CC(=O)Oc1ccc(Cn2cc(F)c(=O)[nH]c2=O)cc1C1OC(c2cccc(Cl)c2)=NN1C(C)=O` (stereo not shown) the pIC50 was under 4.00 (parasite growth, SYBR Green; amastigote).
The pIC50 of `O=C(NCCNCCO)c1cn(Cc2ccc(F)cc2)c2cc(Cl)c(OCc3ccc(C(F)(F)F)cc3)cc2c1=O` is reported as under 4.70 (Bob promastigotes; 120 h).
With `CCCCOC(=O)/C=C/c1ccc(O)c([N+](=O)[O-])c1` the pIC50 was 6.38 (parasite growth; 70 h, amastigote).
`COc1ccc(-c2c(O)cc(O)c3c2C[C@@H](C)N(C)[C@@H]3C)c2cc(C)cc(OC)c12` (single isomer, unassigned) has a pIC50 of under 4.00 (MHOM/ET/67/L82, amastigotes).
The pIC50 of `CC(=O)Oc1ccc(Cn2ccc(=O)[nH]c2=O)cc1C1OC(c2ccccc2)=NN1C(C)=O` (stereo not shown) is reported as under 4.00 (parasite growth, SYBR Green; amastigote).
The pIC50 of `COc1cc(O)c(-c2ccc(OC)c3c(OC)cc(C)cc23)c2c1[C@H](C)N(C)[C@H](C)C2` is reported as under 4.00 (MHOM/ET/67/L82, amastigotes).
`CCCCCCCCCCCCCCCCC1CC(=O)NCCCN(C)CCCCN(C)CCCN1C` (stereo not shown) has an IC50 of 1.2 µg/mL (Alamar blue; 72 h, 26 °C, promastigotes).
With `CCOC(=O)CNC(=O)CN1C(=O)S/C(=C\c2ccc(OC)c(O)c2)C1=O` the pIC50 was under 4.00 (parasite growth, resazurin; promastigote).
The pIC50 of `CC(=O)Oc1ccc(Cn2ccc(=O)[nH]c2=O)cc1C1OC(c2cccc(Cl)c2)=NN1C(C)=O` (stereo not shown) is reported as under 4.00 (parasite growth, SYBR Green; RAW264.7; intracellular, amastigote).
`CCCCCCCCCC1CC2CCCC3CC(CCCCCCCCC)NC(=N1)N23` (stereo not shown) gave a pIC50 of 5.56 (parasite growth, Alamar Blue; promastigotes).
`CCOC(=O)CNC(=O)CN1C(=O)S/C(=C\c2ccc(C)cc2)C1=O` gave a pIC50 of 4.04 (parasite growth, resazurin; promastigote).
`CC(C)(C)OC(=O)/C=C/c1ccc(O)c([N+](=O)[O-])c1` has a pIC50 of 5.89 (parasite growth; 70 h, amastigote).
With `CCOC(=O)C(CC)NC(=O)CN1C(=O)S/C(=C\c2ccc([N+](=O)[O-])cc2)C1=O` (stereo not shown) the pIC50 was under 5.00 (parasite growth; 24 h, intracellular, amastigote).
`CCn1cc(C(=O)NCCNCCO)c(=O)c2cc(OCc3cccc(C)c3)c(Cl)cc21` gave a pIC50 of under 4.70 (Bob promastigotes; 120 h).
The pIC50 of `O=C1C(O)=C(I)C(=O)c2ccccc21` is reported as over 5.00 (parasite growth, SYBR Green; amastigote).
The pIC50 of `CC(=O)Oc1ccc(Cn2cc(F)c(=O)[nH]c2=O)cc1C1OC(c2ccccc2)=NN1C(C)=O` (stereo not shown) is reported as under 4.00 (parasite growth, SYBR Green; amastigote).
For `CCOC(=O)C(NC(=O)CN1C(=O)/C(=C/c2ccc3c(c2)OCO3)SC1=S)C(C)C` (stereo not shown), the pIC50 was under 4.00 (parasite growth, resazurin; promastigote).
`CC(=O)Oc1ccc(Cn2ccc(=O)[nH]c2=O)cc1C1OC(c2ccc(Cl)cc2)=NN1C(C)=O` (stereo not shown) gave a pIC50 of under 4.00 (parasite growth, SYBR Green; RAW264.7; intracellular, amastigote).
With `COC(=O)/C=C/c1ccc(O)c([N+](=O)[O-])c1` the pIC50 was 5.92 (parasite growth; 70 h, amastigote).
`Cc1nc(C(=O)N2CCC[C@@H]2C(=O)N[C@H](CCC2CCCCC2)C(=O)N[C@H](CC(C)C)C(=O)NC(C)(C)C(=O)N[C@H](CC(C)C)C(=O)N[C@H](CC(C)C)C(=O)NC(C)(C)C(=O)NC(C)(C)C(=O)NCCC(=O)NC2(CN(C)C)CCC2)co1` gave a pIC50 of 8.32 (resazurin; MHOM/ET/67/L-82 axenic amastigotes).
The pIC50 of `O=C(NCCNCCO)c1cn(Cc2cccc(Br)c2)c2cc(Cl)c(OCc3ccc(C(F)(F)F)cc3)cc2c1=O` is reported as under 4.70 (Bob promastigotes; 120 h).
With `CCCCCC1CC2CCCC3CC(C)N=C(N1)N32` (stereo not shown) the pIC50 was 5.02 (parasite growth, Alamar Blue; promastigotes).
For `CCOC(=O)C(NC(=O)CN1C(=O)/C(=C/c2ccc([N+](=O)[O-])cc2)SC1=S)C(C)C` (stereo not shown), the pIC50 was under 5.00 (parasite growth; 24 h, intracellular, amastigote).
The pIC50 of `CC/C(=C\c1ccc(OCC(=O)NC(C(=O)N2CCSCC2)c2ccccc2)cc1)[N+](=O)[O-]` (stereo not shown) is reported as 5.81 (parasite growth, MTT; 72 h, promastigote).
With `CC(=O)Oc1ccc(Cn2cc(C)c(=O)[nH]c2=O)cc1C1OC(c2ccc(Cl)cc2)=NN1C(C)=O` (stereo not shown) the pIC50 was under 4.00 (parasite growth, SYBR Green; RAW264.7; intracellular, amastigote).
The pIC50 of `CC/C(=C\c1ccc(OCC(=O)NC(C(=O)N2CCOCC2)c2ccccc2)cc1)[N+](=O)[O-]` (stereo not shown) is reported as 4.84 (parasite growth, MTT; 72 h, promastigote).
With `COc1ccc(CCNC(=O)C(=O)[C@H](Cc2ccccc2)NC(=O)c2oc3cc(OC)c(OC)cc3c(=O)c2C)cc1` the pIC50 was 4.92 (parasite growth; 72 h, promastigote).
The pIC50 of `CC(=O)Oc1ccc(Cn2cc(F)c(=O)[nH]c2=O)cc1C1OC(c2ccc(Cl)cc2)=NN1C(C)=O` (stereo not shown) is reported as 4.25 (parasite growth, SYBR Green; amastigote).
`CCOC(=O)C(CC)NC(=O)CN1C(=O)S/C(=C\c2ccc(C)cc2)C1=O` (stereo not shown) has a pIC50 of 6.27 (parasite growth; 24 h, intracellular, amastigote).

For quick reference, copied from above:
The pIC50 of `CC(=O)Oc1ccc(Cn2cc(F)c(=O)[nH]c2=O)cc1C1OC(c2ccccc2)=NN1C(C)=O` (stereo not shown) is reported as under 4.00 (parasite growth, SYBR Green; amastigote).
`CCOC(=O)C(CC)NC(=O)CN1C(=O)S/C(=C\c2ccc(C)cc2)C1=O` (stereo not shown) has a pIC50 of 6.27 (parasite growth; 24 h, intracellular, amastigote).
`CCCCCCCCCCCCCCCCC1CC(=O)NCCCN(C)CCCCN(C)CCCN1C` (stereo not shown) has an IC50 of 1.2 µg/mL (Alamar blue; 72 h, 26 °C, promastigotes).
For `CCOC(=O)C(NC(=O)CN1C(=O)/C(=C/c2ccc([N+](=O)[O-])cc2)SC1=S)C(C)C` (stereo not shown), the pIC50 was under 5.00 (parasite growth; 24 h, intracellular, amastigote).
